Results of several laboratories.
Each line is one published result; not all experiments were run side by side. Numbers after ± are the reported error. Converted amounts (≈) assume the structure as drawn.

CCC1(CC)C2CC3CC(C2)CC1(NC)C3 — EC50 (Influenza A virus; viral replication; A/X-31 (H3N2)): > 100 µM
COc1ccc(CNC(C)(C)C23CC4CC(CC(C4)C2)C3)c(O)c1 — EC50 (influenza A virus; viral replication; A/WSN/33 M2 N31S): 0.09 ± 0.005 µM
CCC1(CC)C2CC3CC(C2)CC1(N(C)C)C3 — EC50 (Influenza A virus; viral replication; A/X-31 (H3N2)): > 100 µM
COc1ccc(CNc2ccc(C34CC5CC(CC(C5)C3)C4)cc2)c(O)c1 — EC50 (influenza A virus; viral replication; A/WSN/33 M2 N31S): 0.66 ± 0.21 µM
Cc1ccccc1-c1nnn(C23CC4CC(CC(C4)C2)C3)n1 — IC50 (Influenza A virus; viral replication, inhibitor; A/Puerto Rico/8/34 (H1N1)): > 300 µg/mL
C1CC2C3C4C5CCC4C24CNCC54C13 — EC50 (Influenza A virus; viral replication; A/PR/8/34 cl3; pH 5.7): > 100 µM
CCC1CCc2c(sc3nc(SCCN4CCCCC4)nc(N)c23)C1 (centres unmarked) — kanamycin MIC (Mycobacterium tuberculosis; K204; 100 µM, compound toxic alone, together with: kanamycin): toxic
CN[C@@H]1[C@H](O)[C@H](NC)[C@H]2O[C@]3(O)[C@H](O[C@@H]2[C@H]1O)O[C@H](C)C[C@H]3NC(=O)Cc1cscn1 — MIC (Mycobacterium tuberculosis; microbial growth, broth dilution; H37RV): 0.8 µg/mL (≈ 1.74 µM)
CC(C)(C)C1CCc2c(sc3nc(SCCN4CCCC4)nc(N)c23)C1 (centres unmarked) — kanamycin MIC (Mycobacterium tuberculosis; K204; 100 µM, compound toxic alone, together with: kanamycin): toxic
CN[C@@H]1[C@H](O)[C@H](NC)[C@H]2O[C@]3(O)[C@H](O[C@@H]2[C@H]1O)O[C@H](C)C[C@H]3NC(=O)Cc1ccc(Cl)cn1 — MIC (Mycobacterium tuberculosis; microbial growth; ATCC35837): 1.6 µg/mL (≈ 3.29 µM)
CCC1CCc2c(sc3nc(SCC(=O)NCCN(CC)CC)nc(N)c23)C1 (centres unmarked) — kanamycin MIC (Mycobacterium tuberculosis; K204; 100 µM, compound toxic alone, together with: kanamycin): toxic
CN[C@@H]1[C@H](O)[C@H](NC)[C@H]2O[C@]3(O)[C@H](O[C@@H]2[C@H]1O)O[C@H](C)C[C@H]3NC(=O)Cc1cc(Cl)ccn1 — MIC (Mycobacterium tuberculosis; microbial growth; ATCC35837): 1.6 µg/mL (≈ 3.29 µM)
c1nc(N2CCCCCC2)cnc1CNC12CC3CC(CC(C3)C1)C2 — inhibition (Matrix protein 2 (Influenza A virus, UniProt P0DOF5); channel activity, inhibitor; 100 µM): 12.3%
CCCC/C=C/C(=O)N[C@@H](Cc1cc(F)cc(F)c1)C(=O)N[C@@H](COC(=O)[C@@H]1CCCN1C(C)=O)C(=O)OC — IC50 (ClpP1P2 (Mycobacterium tuberculosis, UniProt P9WPC3+P9WPC5, Y75V/Y95V); enzyme activity; together with: Z-GGL-AMC substrate): 120 µM
CCN(CC)C12C3CCC4C3C3C(CCC31)C42 — EC50 (Influenza A virus; viral replication; A/Virginia/ATCC3/2009 H1N1pdm): 11 ± 6 µM
Cc1[nH]c(=O)c(CNC(=O)c2ccc(C(F)(F)F)nc2)c2c1CCCC2 — MIC (Mycobacterium tuberculosis; MDR, isoniazid and rifampicin resistant): 0.9 µg/mL (≈ 2.46 µM)
CN(C)CCNC(=O)CSc1nc(N)c2c3c(sc2n1)CC(c1ccccc1)CC3 (centres unmarked) — kanamycin MIC (Mycobacterium tuberculosis; K204; 100 µM, compound toxic alone, together with: kanamycin): toxic

Repeated from above:
CCC1(CC)C2CC3CC(C2)CC1(NC)C3 — EC50 (Influenza A virus; viral replication; A/X-31 (H3N2)): > 100 µM
Cc1[nH]c(=O)c(CNC(=O)c2ccc(C(F)(F)F)nc2)c2c1CCCC2 — MIC (Mycobacterium tuberculosis; MDR, isoniazid and rifampicin resistant): 0.9 µg/mL (≈ 2.46 µM)
c1nc(N2CCCCCC2)cnc1CNC12CC3CC(CC(C3)C1)C2 — inhibition (Matrix protein 2 (Influenza A virus, UniProt P0DOF5); channel activity, inhibitor; 100 µM): 12.3%
